Assay results of several laboratories.
Lines come from different studies, so protocols differ. Values joined by “and” are separate records of one study, mostly repeats; a detail may differ. ± marks the error that the study gave.
SLC22A11: Solute carrier family 22 member 11 (SLC22A11, Homo sapiens, UniProt Q9NSA0)
UniProt Q9NSA0, sequence (whole entry, looked up): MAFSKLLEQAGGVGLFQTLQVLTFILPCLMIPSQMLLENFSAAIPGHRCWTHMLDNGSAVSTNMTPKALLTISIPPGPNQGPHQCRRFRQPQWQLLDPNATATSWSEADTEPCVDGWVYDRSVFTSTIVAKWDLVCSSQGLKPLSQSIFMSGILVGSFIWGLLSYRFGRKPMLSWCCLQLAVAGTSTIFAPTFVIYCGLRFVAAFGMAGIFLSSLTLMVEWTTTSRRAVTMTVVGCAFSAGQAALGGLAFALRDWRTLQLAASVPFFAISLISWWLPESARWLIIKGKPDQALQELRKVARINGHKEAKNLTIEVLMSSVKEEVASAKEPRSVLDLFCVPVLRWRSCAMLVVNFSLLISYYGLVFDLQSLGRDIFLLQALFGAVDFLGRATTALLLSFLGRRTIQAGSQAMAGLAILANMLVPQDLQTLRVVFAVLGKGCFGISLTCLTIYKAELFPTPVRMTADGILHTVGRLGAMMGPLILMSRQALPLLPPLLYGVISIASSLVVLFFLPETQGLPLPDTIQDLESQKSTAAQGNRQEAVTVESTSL
Faah: Fatty-acid amide hydrolase 1 (Faah, Rattus norvegicus, UniProt P97612)
UniProt P97612, sequence (whole entry, looked up): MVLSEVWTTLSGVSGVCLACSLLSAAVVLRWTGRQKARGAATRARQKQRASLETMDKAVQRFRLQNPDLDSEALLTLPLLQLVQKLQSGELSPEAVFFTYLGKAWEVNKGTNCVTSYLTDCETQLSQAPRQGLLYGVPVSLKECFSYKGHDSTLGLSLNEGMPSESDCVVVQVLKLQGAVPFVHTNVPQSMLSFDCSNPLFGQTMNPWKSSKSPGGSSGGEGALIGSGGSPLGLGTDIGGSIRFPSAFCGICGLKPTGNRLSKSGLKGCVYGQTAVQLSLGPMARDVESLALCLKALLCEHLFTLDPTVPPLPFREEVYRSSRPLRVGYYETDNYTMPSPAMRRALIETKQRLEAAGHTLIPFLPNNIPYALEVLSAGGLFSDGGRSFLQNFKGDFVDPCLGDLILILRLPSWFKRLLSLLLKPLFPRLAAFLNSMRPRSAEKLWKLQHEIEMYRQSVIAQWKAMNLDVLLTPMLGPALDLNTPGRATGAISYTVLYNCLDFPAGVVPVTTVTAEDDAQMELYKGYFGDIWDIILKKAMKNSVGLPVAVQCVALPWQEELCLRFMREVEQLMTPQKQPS
UniProt P02716, sequence (whole entry, looked up): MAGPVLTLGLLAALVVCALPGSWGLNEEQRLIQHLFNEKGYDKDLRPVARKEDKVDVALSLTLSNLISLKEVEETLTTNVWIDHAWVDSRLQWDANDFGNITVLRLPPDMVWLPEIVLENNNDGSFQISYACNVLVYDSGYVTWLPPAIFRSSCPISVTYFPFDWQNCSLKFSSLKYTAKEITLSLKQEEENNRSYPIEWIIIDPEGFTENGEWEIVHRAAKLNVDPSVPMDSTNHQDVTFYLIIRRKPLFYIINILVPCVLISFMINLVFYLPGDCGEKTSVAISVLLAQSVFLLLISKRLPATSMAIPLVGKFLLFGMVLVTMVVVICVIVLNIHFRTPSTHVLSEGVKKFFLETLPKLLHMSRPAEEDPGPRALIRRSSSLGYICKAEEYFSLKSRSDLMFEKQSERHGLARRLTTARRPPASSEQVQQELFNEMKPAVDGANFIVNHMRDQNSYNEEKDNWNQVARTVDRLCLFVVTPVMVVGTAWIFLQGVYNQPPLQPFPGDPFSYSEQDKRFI
UniProt P09690, sequence (whole entry, looked up): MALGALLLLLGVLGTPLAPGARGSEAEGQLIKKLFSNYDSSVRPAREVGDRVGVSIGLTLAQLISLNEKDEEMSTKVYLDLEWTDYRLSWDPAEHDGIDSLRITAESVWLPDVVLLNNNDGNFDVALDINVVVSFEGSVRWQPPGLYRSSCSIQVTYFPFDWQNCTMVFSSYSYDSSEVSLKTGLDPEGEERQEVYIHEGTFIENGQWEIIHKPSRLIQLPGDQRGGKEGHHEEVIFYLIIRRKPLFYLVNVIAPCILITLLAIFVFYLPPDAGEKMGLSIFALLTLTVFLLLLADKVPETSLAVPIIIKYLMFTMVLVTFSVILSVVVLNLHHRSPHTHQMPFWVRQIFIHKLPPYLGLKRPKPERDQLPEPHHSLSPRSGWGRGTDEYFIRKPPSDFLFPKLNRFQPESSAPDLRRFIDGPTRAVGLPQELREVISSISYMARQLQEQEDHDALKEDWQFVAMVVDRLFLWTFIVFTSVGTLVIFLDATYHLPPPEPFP
UniProt P41146, sequence (whole entry, looked up): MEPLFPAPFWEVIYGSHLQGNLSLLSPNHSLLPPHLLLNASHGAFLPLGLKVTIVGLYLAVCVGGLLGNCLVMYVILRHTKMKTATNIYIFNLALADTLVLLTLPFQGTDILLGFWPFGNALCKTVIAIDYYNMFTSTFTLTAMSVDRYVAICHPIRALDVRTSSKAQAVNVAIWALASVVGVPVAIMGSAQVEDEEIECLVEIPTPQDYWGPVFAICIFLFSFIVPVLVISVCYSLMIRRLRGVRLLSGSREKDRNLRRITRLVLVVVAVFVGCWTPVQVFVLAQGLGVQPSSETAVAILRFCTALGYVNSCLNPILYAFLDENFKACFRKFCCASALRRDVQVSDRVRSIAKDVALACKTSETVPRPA
UniProt P04756, sequence (whole entry, looked up): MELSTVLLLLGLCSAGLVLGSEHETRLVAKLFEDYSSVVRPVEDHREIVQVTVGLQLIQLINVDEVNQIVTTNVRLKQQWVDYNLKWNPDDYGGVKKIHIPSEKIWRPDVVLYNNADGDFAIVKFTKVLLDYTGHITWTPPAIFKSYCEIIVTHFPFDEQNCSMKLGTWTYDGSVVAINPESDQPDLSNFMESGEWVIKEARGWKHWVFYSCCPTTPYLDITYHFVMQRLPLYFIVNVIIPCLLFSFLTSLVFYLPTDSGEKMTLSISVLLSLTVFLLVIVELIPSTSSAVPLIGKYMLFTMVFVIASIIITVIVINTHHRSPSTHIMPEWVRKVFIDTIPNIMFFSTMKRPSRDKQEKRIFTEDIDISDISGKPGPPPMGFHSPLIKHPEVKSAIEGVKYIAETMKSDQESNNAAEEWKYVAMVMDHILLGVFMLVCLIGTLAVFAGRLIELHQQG
UniProt P20782, sequence (whole entry, looked up): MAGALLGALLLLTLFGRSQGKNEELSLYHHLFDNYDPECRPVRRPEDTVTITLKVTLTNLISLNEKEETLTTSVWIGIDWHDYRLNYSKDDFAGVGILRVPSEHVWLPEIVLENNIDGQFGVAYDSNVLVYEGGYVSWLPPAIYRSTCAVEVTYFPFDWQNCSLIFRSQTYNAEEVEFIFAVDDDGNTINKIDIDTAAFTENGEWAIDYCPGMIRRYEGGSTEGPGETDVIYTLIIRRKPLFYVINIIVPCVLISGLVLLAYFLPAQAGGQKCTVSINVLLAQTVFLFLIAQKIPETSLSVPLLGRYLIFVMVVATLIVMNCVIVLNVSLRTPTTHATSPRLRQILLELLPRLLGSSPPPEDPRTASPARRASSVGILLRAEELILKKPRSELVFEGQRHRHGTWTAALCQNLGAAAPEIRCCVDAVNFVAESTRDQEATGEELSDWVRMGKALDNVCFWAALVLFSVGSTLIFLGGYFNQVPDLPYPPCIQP
UniProt P04201, sequence (whole entry, looked up): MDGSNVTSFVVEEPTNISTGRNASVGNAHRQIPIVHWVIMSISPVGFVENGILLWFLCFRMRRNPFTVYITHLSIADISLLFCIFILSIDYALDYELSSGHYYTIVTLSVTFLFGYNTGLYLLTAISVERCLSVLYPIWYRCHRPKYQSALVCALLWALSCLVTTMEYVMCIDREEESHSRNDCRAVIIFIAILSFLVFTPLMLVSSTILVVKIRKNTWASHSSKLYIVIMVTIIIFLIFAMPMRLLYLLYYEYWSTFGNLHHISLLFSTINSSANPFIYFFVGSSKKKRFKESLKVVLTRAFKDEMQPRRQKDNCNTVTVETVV
UniProt P28074, sequence (whole entry, looked up): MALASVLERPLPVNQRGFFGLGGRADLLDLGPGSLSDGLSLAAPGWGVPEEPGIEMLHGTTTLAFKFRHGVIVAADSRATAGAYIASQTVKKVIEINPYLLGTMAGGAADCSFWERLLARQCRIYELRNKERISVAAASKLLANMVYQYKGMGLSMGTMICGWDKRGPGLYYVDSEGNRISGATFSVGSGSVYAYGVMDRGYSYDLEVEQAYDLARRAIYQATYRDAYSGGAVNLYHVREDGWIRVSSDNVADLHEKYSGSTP
UniProt P09936, sequence (whole entry, looked up): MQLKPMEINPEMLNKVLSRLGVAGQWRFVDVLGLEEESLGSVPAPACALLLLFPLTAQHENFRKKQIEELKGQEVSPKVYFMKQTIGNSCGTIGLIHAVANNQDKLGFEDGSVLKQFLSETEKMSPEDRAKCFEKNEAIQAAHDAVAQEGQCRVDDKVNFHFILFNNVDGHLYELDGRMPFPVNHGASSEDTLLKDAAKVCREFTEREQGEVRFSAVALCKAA

CC(C)(C)OC(=O)NCCOC(=O)[C@@H]1CS[C@H]2CS[C@H](CS)N21
activity (sfhI (Serratia fonticola, UniProt Q9RMI1); activity class; concentration not given): inactive

CC12CCC(CC1)C(C)(C)O2
kcat (1,8-cineole 2-endo-monooxygenase (cinA, Citrobacter braakii, UniProt Q8VQF6, N242A); NADPH consumption, substrate; 200 µM, pH 7.8, room temperature, N242A variant, 50 mM Tris, with: Fpr and Cdx): 1.33 ± 0.177 s⁻¹

CC(=O)NC[C@H]1[C@H](O)[C@H](O)[C@@H]2[C@H](O)C[C@@H](CO)N21
inhibition (human placental β-N-acetylglucosaminidase; 0.02575 µM, run 2, with: p-nitrophenyl GlcNAc): 81.8%

O=c1oc(-c2cccc(F)c2)ns1
kobs/[I] (PSMB5 (Homo sapiens, UniProt P28074); enzyme inactivation, inhibitor; human PA28-activated proteasome): 31.3 M⁻¹ s⁻¹

C[C@H]1CN(c2n[nH]c3nc(N[C@H]4CC[C@H](NS(=O)(=O)CCC(F)(F)F)CC4)ncc23)CCO1
remaining binding (Large ribosomal subunit protein uL5 (Homo sapiens, UniProt P62913); Kinobeads competition, item: RPL11; 0.8 µM, unit not given; relative to: vehicle): 1.2

O=C(Nc1cccnn1)N1CCC(=Cc2cccc(Oc3ccc(C(F)(F)F)cn3)c2)CC1
inhibition (Nociceptin receptor (OPRL1, Homo sapiens, UniProt P41146); radioligand binding, inhibitor; 10 µM, human, with: [3H]nociceptin): 2%

CC[N+]1(CC)CCN(c2ccc(C(N)=O)cc2)CC1
ACh response (Nicotinic acetylcholine receptor alpha1/beta1/epsilon/delta (Mus musculus, UniProt P02716+P04756+P09690+P20782); ion current, inhibitor, two-electrode voltage clamp; Xenopus oocytes; 30 µM, after co-application, unit not given, with: ACh 30 µM; relative to: ACh alone): 0.687 ± 0.235

C[C@]12CC[C@@H]3c4ccc(OS(=O)(=O)O)cc4CC[C@H]3[C@@H]1CCC2=O
Km (SLC22A11; substrate; CHO cells expressing human OAT4; 5 min, pH 7.4): 7.7 ± 0.3 µM

O=C(CCl)C1CC1(Cl)Cl (stereo not shown)
labelling (UCHL1 (Homo sapiens, UniProt P09936); covalent, intact protein LC-MS; 12.5 µM): 10.1%

COc1cc(N)c(Cl)cc1C(=O)NC1CN2CCC1CC2 (stereo not shown)
log2 fold change (Proto-oncogene Mas (Homo sapiens, UniProt P04201); β-arrestin recruitment, TANGO luminescence, item: MAS1; concentration not given; relative to: basal luminescence): -0.008

CN(C(=O)n1cnc(-c2ccc[n+]([O-])c2)c1)C1CCCCC1
fold change (Faah; enzyme activity, ABPP; rat, brain; oral, 30 mg/kg/day, 1 days; relative to: vehicle): -94.6

O=C(Nc1cnccc1Cl)N1CCN(Cc2ccc3c(c2)OC(F)(F)O3)CC1
inhibition (Faah; probe labelling, inhibitor, competitive ABPP with azido-FP probe; rat brain membrane fraction; 1 µM): 74.2%

CC1(C)C(C=C(Cl)Cl)C1C(=O)OCc1cccc(Oc2ccccc2)c1 (stereo not shown)
remaining activity (uncharacterized protein (Anopheles coluzzii, UniProt A0A6E8VQK1); enzyme activity, inhibitor; Sf9 cell homogenate; 4.651 µM, 0.1667 h, with: α-naphthyl acetate substrate; relative to: no inhibitor): 94.2%

O=C(O)C(F)(F)C(F)(F)C(F)(F)C(F)(F)C(F)(F)C(F)(F)C(F)(F)F
linear uptake duration (SLC22A11; substrate; HEK293 stably expressing; 10 µM): 2.5 min

C[C@@H](NC(=O)[C@@H](N)Cc1ccc(O)cc1)C(=O)NCC(=O)N(C)[C@@H](Cc1ccccc1)C(=O)NCCO
GTPγS binding (Oprm1 (Mus musculus, UniProt P42866); agonist; mouse spinal cord membranes; 316 nM; relative to: baseline): 22.2% and 26.8% and 30.1% and 32.2% and 21.1% and 24.8% and 23.6% and 30.5%

COc1ccc(N2C(=O)N(c3c(C)cccc3Cl)Cc3cnc(Nc4ccc(C5CCN(C)CC5)cc4OC)nc32)nc1
inhibition (DYRK1A (Homo sapiens, UniProt Q13627); kinase activity; 0.5 µM): 5.46%

Repeated from above:
CC12CCC(CC1)C(C)(C)O2
kcat (1,8-cineole 2-endo-monooxygenase (cinA, Citrobacter braakii, UniProt Q8VQF6, N242A); NADPH consumption, substrate; 200 µM, pH 7.8, room temperature, N242A variant, 50 mM Tris, with: Fpr and Cdx): 1.33 ± 0.177 s⁻¹

CC(=O)NC[C@H]1[C@H](O)[C@H](O)[C@@H]2[C@H](O)C[C@@H](CO)N21
inhibition (human placental β-N-acetylglucosaminidase; 0.02575 µM, run 2, with: p-nitrophenyl GlcNAc): 81.8%
